Results from different studies.
Numbered parts are unrelated; each lists some results of a single study. Substitutions count along the parent as printed.

Block 1
Target: CCNB1, cyclin fold, Cln2 fusion (human)
Method: yeast growth competition, sequencing
Matrix: yeast
Setting: weak parent motif
Relative to: not given
Direction: higher = stronger binding
Parent: DOT1L docking peptide (human); SEAKRRIVFTITT
`AEAKRRIVFTITT [S1A]` — result for “normalised enrichment score”: 0.381.
`SEAKRRIVFTITA [T13A]`: “normalised enrichment score” 0.288.
`SEAKRAIVFTITT [R6A]` — result for “normalised enrichment score”: -0.304.
`SEAKRRAVFTITT [I7A]` — result for “normalised enrichment score”: -0.0949.
For `SEAKRRIVATITT [F9A]`, “normalised enrichment score” read 0.373.
Under “normalised enrichment score”, `SEAKARIVFTITT [R5A]` is recorded as 0.0779.

Block 2
Target: RING finger protein unkempt homolog, zinc fingers 1-6, GST-SBP tag (UNK, Homo sapiens, UniProt Q9C0B0, residues 30-357)
UniProt Q9C0B0, sequence (30-357, looked up): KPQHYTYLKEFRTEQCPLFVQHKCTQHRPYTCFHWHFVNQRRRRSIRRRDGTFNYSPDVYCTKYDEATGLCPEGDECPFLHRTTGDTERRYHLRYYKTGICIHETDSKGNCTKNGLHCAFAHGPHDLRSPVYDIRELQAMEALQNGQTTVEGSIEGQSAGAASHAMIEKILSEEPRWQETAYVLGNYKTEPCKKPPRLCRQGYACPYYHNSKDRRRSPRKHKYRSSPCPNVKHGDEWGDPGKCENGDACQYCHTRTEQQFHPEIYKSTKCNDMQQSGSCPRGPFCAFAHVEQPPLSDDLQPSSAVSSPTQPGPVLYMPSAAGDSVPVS
Method: RNA Bind-n-Seq
Form: RNA
Matrix: in vitro
Tested at: not given
Setting: RNA with constant flanks, human and mouse sites, ends assumed
Relative to: input RNA pool
Direction: higher = stronger binding
`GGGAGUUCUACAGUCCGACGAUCGCUGCUGCUGCUGCUGCAACAGCUGCCUGGACAGGGACCACCUUUACUAAAAAAGCACCAUUCCAAAAUAAACAACUGAAACCAAAACAGCCUCCCAAACCACCACAGAUUCACUAUUGUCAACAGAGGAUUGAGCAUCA` gave a bound/input enrichment of 0.478 ratio.
`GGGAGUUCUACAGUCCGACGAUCGUUGGUACUUCUGUAAAAACCUUAGUAUUAGCAUACAGCUCUGCAGUUUCCAGCAAAAUGGUUAGGCAGAUUUUAGAGCUUUGUCCUAACCUGGAGCAUCUGGAUCUUACCCAGACUGACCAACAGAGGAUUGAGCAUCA` gave a bound/input enrichment of 26.2 ratio.
For `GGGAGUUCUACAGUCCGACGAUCGAGACUUCAAAUGCACUAAAGGUUGCUGACUGUGUAGUGGGCAAAGGAUCAAGUGAUGCCGUUUCGCCUGACACGUUCACAGCAGAAGUGAGCUCAGACGCAGUCCCUGAUGUCAGGUCACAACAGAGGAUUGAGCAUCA`, the bound/input enrichment was 0.151 ratio.
`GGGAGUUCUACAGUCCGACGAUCGAAAAAGAGCAGGAAGUGAAUGCUCGUUUACUUCAUUGUGUGAGUAAACAGAAAAUUUUACUUAGCCAGGCUAGAAGAACUCAGAAACACUUGCAGAUGCUCCUGGCAAAGCAUGUUGUUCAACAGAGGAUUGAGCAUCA` has a bound/input enrichment of 0.139 ratio.
For `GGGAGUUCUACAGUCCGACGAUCACUCUUGACUCUUUCCAUUCUCGUCCCUUUCCUCUUGAUCUUCAAGGCCAUGAAUCCCAAAAUAGCUAUCUAUCUUAGAGGCUAGCACCCAAACUGAGGUGCCAUCCAAACUGACAAGGCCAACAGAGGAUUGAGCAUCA`, the bound/input enrichment was 0.923 ratio.
`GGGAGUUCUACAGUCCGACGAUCUGUCCUUCCUUUUCCUCUCCUUUCAUGACAAAGCAUCCUUCUUGUUUCCCUUCUCUCUAUGUCGCUAAGUCAGUGGUUCUCAACCUGUGGGUCACAAUCCCUUUGGAGGUUGAAUAACUCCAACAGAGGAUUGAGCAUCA` gave a bound/input enrichment of 0.424 ratio.
`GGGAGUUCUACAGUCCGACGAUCCAGACAAUUGCUCGGAAUGCCCUUAAACAGGAAACAGAAGUGGAACUGUACAAUGAAUUCCCUGAACCCAUCAAACUGGACAAGAAUGACCGGGCCAAGGCCUCCGCAGAAAGCUGCAGUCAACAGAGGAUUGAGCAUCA` has a bound/input enrichment of 0.209 ratio.
For `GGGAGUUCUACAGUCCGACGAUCACAGAUGAAGCUGACCUGGUUCUUGCAAAAGAAGCUAAUGUGAAAUGUCCACAAAUUGUGAUAGCAUUUUAUGAAGAGAGACUGACAUGGCAUGCAUAUCCUGAGGAUGCGGAAAACAAACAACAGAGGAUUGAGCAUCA`, the bound/input enrichment was 0.228 ratio.
`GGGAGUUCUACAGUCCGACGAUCCCAUUGUACCCUGCUGUAUAAUAAACAAUCUUAGACAUUUAUCAACUGUUGAUACAAAUGUUAGUCCCUAACCACUUUUUAUAUAUGUUUUAAAUUUUUGAAAUUCAAGUGUACCUGCCACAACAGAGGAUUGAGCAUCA` has a bound/input enrichment of 28.8 ratio.
With `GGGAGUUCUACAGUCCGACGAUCUGGGCAUCCUCUCUGGGGAGCUGCUGGCCGCUUAGCGUUGUUUGAUUUUUGACCUUGACAUAGUAGAUAGGCUUGUGGUUUUUUUAAUUUAAAGAUAUUAAGACUUAAUUCACUAAAAUUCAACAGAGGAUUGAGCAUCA` the bound/input enrichment was 16.1 ratio.
`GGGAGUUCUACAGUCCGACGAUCUGAGAUAAAAAGUUUCACUCUGCUAAGGAUAAUUACCUUUCUAAGCAUGAAAACAGACAUGCUAAGUUUUCACAUCCCUAAGUAGACAUCCCUCAUGAAUCAGAAUCGUUACAGGCCAUCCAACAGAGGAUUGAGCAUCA` has a bound/input enrichment of 0.199 ratio.

Block 3
Target: Fragile X messenger ribonucleoprotein 1, C-terminal low-complexity region (Fmr1, Mus musculus, UniProt P35922)
Method: RNA Bind-n-Seq
Form: RNA
Matrix: in vitro
Tested at: 200 nM
Setting: whole 134-nt RNA, ends assumed
With: 150 mM LiCl
Relative to: input library
Direction: higher = stronger binding
All molecules: 7-deaza-guanosine replaces G
For `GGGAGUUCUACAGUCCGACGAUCUUACCGACACCGUAGAACAGAGCAAGAGGAGGAUGAAGAGCUAUUAACAGAAAGCUCCAAAGCAACCAAUGUUUGCACUCGAUUUGAAGAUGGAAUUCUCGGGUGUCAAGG`, the log2 enrichment was 0.146.
`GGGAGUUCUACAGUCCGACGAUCCUUAUGCCUUCCCCACUGGUAUUGAGGGUUUUGAUAAUAAAUUGGUAGGAAAAAAAAGUACCUCCUAGAAGGAAGCCUUCCCCACCAUUUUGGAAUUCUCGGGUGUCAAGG` has a log2 enrichment of 1.39.
`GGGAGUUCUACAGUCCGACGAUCGUCCUGUGCUACACAUCGUAUGUACCGAAUCGGGUUUUUUUGGGUUUGGGUUUUUGGGAAAGUAUUAUGUUACGCCGUUCGGAUCUGCACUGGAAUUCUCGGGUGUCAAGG` gave a log2 enrichment of -1.55.
With `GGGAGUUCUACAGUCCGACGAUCGUCCUGUGCUACACAUCGUAUGUACCGAAUCGGGUUUUUGGGUUUUUGGGAAAAAGGGAAAGUAUUAUGUUACGCCGUUCGGAUCUGCACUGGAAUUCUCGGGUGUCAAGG` the log2 enrichment was -1.12.
`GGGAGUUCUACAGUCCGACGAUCUGGCCCUGGUGGCAUGCGGGGAGGAAGAGGUGGCCUCAUGGAUCGUGGUUGUCCCGGUGGAAUGUUCAGAGGUGGCCGUGGUGGAGACAGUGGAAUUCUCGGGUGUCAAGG` has a log2 enrichment of -0.000937.
`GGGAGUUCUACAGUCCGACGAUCCACAGACAACGCGCACCCACACAGACACAGAGGGAAGGGGUUGGGAUGGGGACAGGGUGCACAGCAGGGCGGGGUAGGACCCCAGCCCCUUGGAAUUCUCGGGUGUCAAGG` gave a log2 enrichment of -0.858.
With `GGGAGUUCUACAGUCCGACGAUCACCAUGCAGGUGGGCAUCUUUGGGAAGUGGGGCAAGGGGGGGUUAGGGAGGGGGGUAACACUUUGGGAACAGGUGGUCCCAGGUCGUUUCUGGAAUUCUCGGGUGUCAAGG` the log2 enrichment was 0.97.
For `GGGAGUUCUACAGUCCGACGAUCCUGUGCUACACAUCGUAUGUACCGAAUCGGGAAAAAAAGGGGAAAAAAAGGAAAAAAAGGGAAAGUAUUAUGUUACGCCGUUCGGAUCUGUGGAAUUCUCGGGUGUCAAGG`, the log2 enrichment was 0.168.
`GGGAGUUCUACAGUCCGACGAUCGUCAAGUGCUUCUGCUCCUGAUGUGGAUGACCCAGAGGCAUUCCCAGCUCUGGCUUAACUGGAUGCCAUAAGACAACCCUGGUUCCUUUGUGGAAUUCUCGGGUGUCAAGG` gave a log2 enrichment of -1.33.
The log2 enrichment of `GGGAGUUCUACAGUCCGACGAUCCAAGUCCUGUGCUACACAUCGUAUGUACCGAAUCGGGGAAAGGGGAAAGGAAAGGGAAAGUAUUAUGUUACGCCGUUCGGAUCUGCACUUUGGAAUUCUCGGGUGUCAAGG` is reported as -0.975.
For `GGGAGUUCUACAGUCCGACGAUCGAGAGCGAGGUGGCUUCAAUAAGCCUGGUGGUAAGUUUUUGAGUAUUACCAUAGAUAGUGUUUAAAAAAAAAUGCAGUCAGUUUUUAGAAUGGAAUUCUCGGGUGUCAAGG`, the log2 enrichment was -0.256.

Block 4
Molecule: PhoQ, residues 284 288 289 292 302 303 TYGVAM
Method: Sort-seq
Measured: YFP reporter
Matrix: E. coli
Setting: PhoQ-PhoP variant library
With: 10 µM Mg2+
Relative to: high Mg2+ state
Direction: higher = stronger signaling
PhoP, residues 12 14 15 18 19 TQCLL (Escherichia coli, UniProt P23836) — fold induction: 11.1.
For PhoP, residues 12 14 15 18 19 VHTVL (Escherichia coli, UniProt P23836): fold induction read 24.6.
The fold induction was 9.64 (PhoP, residues 12 14 15 18 19 ICWRQ (Escherichia coli, UniProt P23836)).

Some of these lines once more (block 2):
`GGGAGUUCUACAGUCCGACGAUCGAAAAAGAGCAGGAAGUGAAUGCUCGUUUACUUCAUUGUGUGAGUAAACAGAAAAUUUUACUUAGCCAGGCUAGAAGAACUCAGAAACACUUGCAGAUGCUCCUGGCAAAGCAUGUUGUUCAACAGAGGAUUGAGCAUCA` has a bound/input enrichment of 0.139 ratio.
For `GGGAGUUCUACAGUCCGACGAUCACUCUUGACUCUUUCCAUUCUCGUCCCUUUCCUCUUGAUCUUCAAGGCCAUGAAUCCCAAAAUAGCUAUCUAUCUUAGAGGCUAGCACCCAAACUGAGGUGCCAUCCAAACUGACAAGGCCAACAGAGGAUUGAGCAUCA`, the bound/input enrichment was 0.923 ratio.
`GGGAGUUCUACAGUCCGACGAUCUGUCCUUCCUUUUCCUCUCCUUUCAUGACAAAGCAUCCUUCUUGUUUCCCUUCUCUCUAUGUCGCUAAGUCAGUGGUUCUCAACCUGUGGGUCACAAUCCCUUUGGAGGUUGAAUAACUCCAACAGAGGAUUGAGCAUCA` gave a bound/input enrichment of 0.424 ratio.
`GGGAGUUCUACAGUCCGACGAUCCAGACAAUUGCUCGGAAUGCCCUUAAACAGGAAACAGAAGUGGAACUGUACAAUGAAUUCCCUGAACCCAUCAAACUGGACAAGAAUGACCGGGCCAAGGCCUCCGCAGAAAGCUGCAGUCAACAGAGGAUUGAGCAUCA` has a bound/input enrichment of 0.209 ratio.
